# Measurements gathered from unrelated publications.
# Numbered parts are unrelated; each lists some results of a single study. Substitutions count along the parent as printed.

# Sample 1 — technique: protein binding microarray; molecule type: double-stranded DNA, one strand shown; medium: in vitro; tested at: not given; baseline: not given; reading: higher = stronger binding
# Target: Histone acetyltransferase KAT6A, winged helix 2, GST fusion (KAT6A, Homo sapiens, UniProt Q92794, residues 85-181)
# Notes: 8-mer, flanks averaged, mean of 2 arrays, mostly near background
# Construct (chain): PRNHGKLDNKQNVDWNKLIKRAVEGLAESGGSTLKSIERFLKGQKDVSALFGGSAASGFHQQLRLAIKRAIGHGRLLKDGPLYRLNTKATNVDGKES
Oligonucleotide,E-score
GGTAAGTA,-0.165
ATGGAAGG,0.0524
CCCGCCCG,0.22
GATGTGAA,-0.0411
ACTCCAGT,-0.131
AATAGTAT,0.0944
GATACCGA,-0.0221
ACGCGCGC,0.268
GTGAGGAA,0.0375
GCCGACGA,0.109
CTAGGGGC,-0.0709
GCATGAAA,-0.0034
CCGAGCCA,0.0131
GCCGTAGA,0.12
ATGTCGCG,-0.0935
CTCTCGCA,-0.0931
CAACATGG,0.0848
AGAGTGCA,-0.194
CGAGATCG,0.0524
ACGTGCCG,-0.0425
AAGAGTCA,-0.119
GATTATTA,-0.0759
ATCGCTTG,-0.0303
ACCATTTA,-0.0328
AGGCCCCA,-0.107

# Sample 2 — technique: DHFR PCA, deep sequencing; medium: yeast; together with: (+)-ABA 1.4 µM; baseline: wild-type fitted maximum; reading: higher = stronger binding
# Target: ABI1, truncated, D143A, DHFR fusion (Arabidopsis thaliana)
# Notes: methotrexate growth selection, single substitutions
# Parent: PYL1, truncated, DHFR fusion (Arabidopsis thaliana); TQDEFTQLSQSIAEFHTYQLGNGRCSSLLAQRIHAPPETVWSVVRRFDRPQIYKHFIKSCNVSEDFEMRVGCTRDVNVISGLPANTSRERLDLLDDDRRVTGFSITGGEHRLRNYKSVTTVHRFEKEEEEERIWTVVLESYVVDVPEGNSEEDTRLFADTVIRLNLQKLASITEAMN; partner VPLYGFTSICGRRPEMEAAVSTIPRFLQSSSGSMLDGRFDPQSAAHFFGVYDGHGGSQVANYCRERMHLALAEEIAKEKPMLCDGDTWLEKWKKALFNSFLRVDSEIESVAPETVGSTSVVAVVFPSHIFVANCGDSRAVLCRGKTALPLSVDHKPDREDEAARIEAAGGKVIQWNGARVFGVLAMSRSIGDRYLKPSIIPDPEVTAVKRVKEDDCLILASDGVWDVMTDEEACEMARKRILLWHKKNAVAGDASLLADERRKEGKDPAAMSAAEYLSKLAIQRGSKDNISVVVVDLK
Substitution,relative binding score [%]
F103T,2.77
S117H,-9.44
E109C,24
R45S,9.29
Y115M,0.451
L91I,12.9
T86L,17.5
Y115G,-2.09
S104L,0.0114
C60W,2.4
E147A,40.8
R69A,51.1
R98Y,17.8

# Sample 3 — target: UBE2G2 UBC core domain (UniProt P60604); technique: yeast two-hybrid; medium: yeast; notes: mostly zero background; baseline: not given; reading: higher = stronger interaction
# B1: RNF208 RING domain (UniProt Q9H0X6); chain SSAAAGEPLECPTCGHSYNVTQRRPRVLSCLHSVCEQCLQILYESCPKYKFISCPTCRRETVLFTDYG
# B2: SH3RF2 RING domain (UniProt Q8TEC5); chain DDLTLLDLLECPVCFEKLDVTAKVLPCQHTFCKPCLQRVFKAHKELRCPECRTPVFSNIEAL
# B3: TRIM5 RING domain (UniProt Q9C035); chain LREVKLSPEGQKVDHCARHGEKLLLFCQEDGKVICWLCERSQEHRGHHTFLTEEVAREYQVKL
# B4: TRIM13 RING domain (UniProt O60858); chain MELLEEDLTCPICCSLFDDPRVLPCSHNFCKKCLEGILEGSVRNSLWRPAPFKCPTCRKETSATGINS
# B5: TRIM24 RING domain (UniProt O15164); chain EAARLNLLDTCAVCHQNIQSRAPKLLPCLHSFCQRCLPAPQRYLMLPAPMLGSAETPPPVPAPGSPVSGSSPFATQVGVIRCPVCSQECAERHII
# B6: RNF111 RING domain (UniProt Q6ZNA4); chain EGTEEDTEEKCTICLSILEEGEDVRRLPCMHLFHQVCVDQWLITNKKCPICRVDIEAQLPSE
# B7: TRIM4 RING domain (UniProt Q9C037); chain EAEDIQEELTCPICLDYFQDPVSIECGHNFCRGCLHRNWAPGGGPFPCPECRHPSAPAALRP
# B8: VPS41 RING domain (UniProt P49754); chain KGVLVDEENICESCLSPILPSDAAKPFSVVVFHCRHMFHKECLPMPSMNSAAQFCNICSAKNRGPGSAI
# B9: TRIM5 RING domain (UniProt Q9C035); chain ILVNVKEEVTCPICLELLTQPLSLDCGHSFCQACLTANHKKSMLDKGESSCPVCRISYQPENIRP
# B10: TRIML1 RING domain (UniProt Q8N9V2); chain LMENLREELTCFICLDYFSSPVTTECGHSFCLVCLLRSWEEHNTPLSCPECWRTLEGPHFQS
# B11: TRAF5 RING domain (UniProt O00463); chain FVERLEERYKCAFCHSVLHNPHQTGCGHRFCQHCILSLRELNTVPICPVDKEVIKSQEVFK
# B12: RNF38 RING domain (UniProt Q9H0F5); chain PNNHQSEQTLCVVCMCDFESRQLLRVLPCNHEFHAKCVDKWLKANRTCPICRADASEVHRDS
# Residues (chain): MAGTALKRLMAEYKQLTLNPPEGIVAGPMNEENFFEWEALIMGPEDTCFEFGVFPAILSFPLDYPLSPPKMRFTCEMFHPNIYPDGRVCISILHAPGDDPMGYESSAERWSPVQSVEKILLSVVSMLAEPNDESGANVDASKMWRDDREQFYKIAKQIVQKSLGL
Sequence,lacZ reporter activity
B1 (RNF208 RING domain),0
DHGAVGQEMCCPICCSEYVKGEVATELPCHHYFHKPCVSIWLQKSGTCPVCRCMFPPPL (PJA1 RING domain (UniProt Q8NG27)),0
B2 (SH3RF2 RING domain),0
MPIRALCTICSDFFDHSRDVAAIHCGHTFHLQCLIQWFETAPSRTCPQCRIQVGKRTIIN (TRAIP RING domain (UniProt Q9BWF2)),0
B3 (TRIM5 RING domain),0
B4 (TRIM13 RING domain),0
B5 (TRIM24 RING domain),0
B6 (RNF111 RING domain),10200
ASLPTSEEDLCPICYAHPISAVFQPCGHKSCKACINQHLMNNKDCFFCKTTIVSVEDWE (RNF123 RING domain (UniProt Q5XPI4)),0
VEPSEENSKDCVVCQNGTVNWVLLPCRHTCLCDGCVKYFQQCPMCRQFVQESFALC (CGRRF1 RING domain (UniProt Q99675)),0
B7 (TRIM4 RING domain),0
B8 (VPS41 RING domain),0
B9 (TRIM5 RING domain),0
B10 (TRIML1 RING domain),0
B11 (TRAF5 RING domain),0
B12 (RNF38 RING domain),0

# Sample 4 — target: CCND3, cyclin fold, Cln2 fusion (human); technique: yeast growth competition, sequencing; medium: yeast; notes: weak parent motif; baseline: not given; reading: higher = stronger binding
# Parent: SCAPER docking peptide (human); SNARRSLNFGGST
Substitution,normalised enrichment score
SNARRSLFFGGST [N8F],0.104
SNARSSLNFGGST [R5S],0.204
SNSRRSLNFGGST [A3S],0.156
SNARKSLNFGGST [R5K],-0.183
SNAARSLNFGGST [R4A],0.116
SNARRSINFGGST [L7I],0.12
SNARRSLNFQGST [G10Q],0.147
SNARRSLNFGGNT [S12N],0.236
SNARGSLNFGGST [R5G],0.0656
SNARRSLNFGGSH [T13H],0.0644
SNAYRSLNFGGST [R4Y],0.0343
SNARRSLNFFGST [G10F],0.125
SNARLSLNFGGST [R5L],0.124
SNARRSLNCGGST [F9C],0.0851
SNARRSLNFIGST [G10I],0.105
SNARRSLNFCGST [G10C],0.142
SNARRSLNFVGST [G10V],0.0342
SNARRSLNPGGST [F9P],0.0966
SNARRSLNAGGST [F9A],0.118
SNARRSLNFGGLT [S12L],0.21
SNRRRSLNFGGST [A3R],0.0404
SCARRSLNFGGST [N2C],0.0497
SPARRSLNFGGST [N2P],0.127

# Sample 5 — technique: protein-binding microarray; molecule type: double-stranded DNA, one strand shown; medium: in vitro; tested at: 0.8 µM; notes: whole 60-bp probe, no competitor; reading: higher = stronger binding
# Target: Centromere-binding protein 1, full length, N-terminal tag (CBF1, Saccharomyces cerevisiae, UniProt P17106, residues 1-351)
# Sequence of UniProt P17106 (whole entry, looked up): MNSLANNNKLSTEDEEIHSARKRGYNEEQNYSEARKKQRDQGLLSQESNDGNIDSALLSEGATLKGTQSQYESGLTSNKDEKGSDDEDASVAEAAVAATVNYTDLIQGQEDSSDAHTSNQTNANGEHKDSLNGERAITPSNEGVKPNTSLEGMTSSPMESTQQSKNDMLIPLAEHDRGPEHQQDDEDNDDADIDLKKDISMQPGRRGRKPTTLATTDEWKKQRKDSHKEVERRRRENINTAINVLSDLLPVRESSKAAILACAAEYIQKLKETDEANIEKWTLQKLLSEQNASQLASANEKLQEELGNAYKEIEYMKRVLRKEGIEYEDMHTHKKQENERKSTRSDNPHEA
Oligonucleotide,fluorescence intensity [a.u.]
GAAAAGTTACGGCACACCGTGATGTACCCGCATTAGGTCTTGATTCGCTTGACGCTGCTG,533
CTAAAAAAGAACAAATACATCACGAAGACAGAATTCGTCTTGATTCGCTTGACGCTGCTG,622
CTAGCTAAAGGAGGTCACGAAAACGAATCTGGCTTCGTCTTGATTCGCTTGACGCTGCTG,545
GAATGCACACGAAATCACGAGAATAATCACGAGTAGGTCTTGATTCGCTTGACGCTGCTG,1110
TGTACGAAGCTATGACACATGGATATAGTAGTTAGGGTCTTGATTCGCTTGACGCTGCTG,581
GAACCCATATTAAATCACGCCTATCAACACTTATAGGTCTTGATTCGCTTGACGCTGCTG,920
CTAACAATAAAAAACCACGGGATCAGCATTAACTTCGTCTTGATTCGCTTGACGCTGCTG,2050
GAAATGAAATAATAACATGTGCGGTAAAACAACTAGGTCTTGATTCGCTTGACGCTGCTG,863
CCTAACTACTATAATCACGGCTCATAGCTTCGTACAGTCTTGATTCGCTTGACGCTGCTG,538
GAATGGGGACCAATGATCATTTATGTACTATATTAGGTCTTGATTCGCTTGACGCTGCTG,524
GAAATATTTAAAATACGTGTGATAGTACTATTTTAGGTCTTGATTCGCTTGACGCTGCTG,531
GAACAAAGTACGAGTCACGACATGTAACAAGGGTAGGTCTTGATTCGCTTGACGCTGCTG,1010
TGTACGAAGCTATGTGATTAAAATATAGTAGTTAGGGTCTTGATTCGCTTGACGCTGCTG,579
CTAAATAAATCTGCTTACGTGACATTTTTTACTTTCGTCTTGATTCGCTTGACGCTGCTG,721
GAAAGGTTAAAAGCACGTGGCACGAGAAACGCGTAGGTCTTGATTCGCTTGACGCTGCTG,6750
GAATGATACTTTGGTGACGTATTCTTTTCTCACTAGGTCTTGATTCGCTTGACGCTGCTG,483
CTAGCCTAATATATCCACGTTCTCCGTTGAATTTTCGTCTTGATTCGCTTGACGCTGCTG,580
CTAACAAACGGGGCACACGTGCGGGAGTTTCAATTCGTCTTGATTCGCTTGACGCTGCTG,4220
GAAATATTATAAACTGACGTGGAAAGGCAAAAGTAGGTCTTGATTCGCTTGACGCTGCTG,524
GAATGCGCGTGGAAAAGCGTGTCTTTTTCTCATTAGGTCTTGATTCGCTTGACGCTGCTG,532
GAACATTTGATCTCGAACGTGGTAAACTTGAATTAGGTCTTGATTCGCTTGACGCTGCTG,596
CTAGACTTACTATACCTGACGGTCCACGGGGTTTTCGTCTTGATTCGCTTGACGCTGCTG,955
GAAAGCAATTCACACGTGAATACGTACAATATCTAGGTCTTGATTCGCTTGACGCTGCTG,2040
TGTACGAAGCTATTGAATGTGACTATAGTAGTTAGGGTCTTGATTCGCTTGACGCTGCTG,553
CTACATACATAAATACACACGCATTATTGTTTCTTCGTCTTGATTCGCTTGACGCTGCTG,558

# For quick reference, copied from above (sample 2):
Substitution,relative binding score [%]
Y115G,-2.09
S104L,0.0114
C60W,2.4
E147A,40.8
R69A,51.1
R98Y,17.8
